Measurements collected from several papers.
A part holds a random share of what one study measured.
UniProt O00444, sequence (whole entry, looked up): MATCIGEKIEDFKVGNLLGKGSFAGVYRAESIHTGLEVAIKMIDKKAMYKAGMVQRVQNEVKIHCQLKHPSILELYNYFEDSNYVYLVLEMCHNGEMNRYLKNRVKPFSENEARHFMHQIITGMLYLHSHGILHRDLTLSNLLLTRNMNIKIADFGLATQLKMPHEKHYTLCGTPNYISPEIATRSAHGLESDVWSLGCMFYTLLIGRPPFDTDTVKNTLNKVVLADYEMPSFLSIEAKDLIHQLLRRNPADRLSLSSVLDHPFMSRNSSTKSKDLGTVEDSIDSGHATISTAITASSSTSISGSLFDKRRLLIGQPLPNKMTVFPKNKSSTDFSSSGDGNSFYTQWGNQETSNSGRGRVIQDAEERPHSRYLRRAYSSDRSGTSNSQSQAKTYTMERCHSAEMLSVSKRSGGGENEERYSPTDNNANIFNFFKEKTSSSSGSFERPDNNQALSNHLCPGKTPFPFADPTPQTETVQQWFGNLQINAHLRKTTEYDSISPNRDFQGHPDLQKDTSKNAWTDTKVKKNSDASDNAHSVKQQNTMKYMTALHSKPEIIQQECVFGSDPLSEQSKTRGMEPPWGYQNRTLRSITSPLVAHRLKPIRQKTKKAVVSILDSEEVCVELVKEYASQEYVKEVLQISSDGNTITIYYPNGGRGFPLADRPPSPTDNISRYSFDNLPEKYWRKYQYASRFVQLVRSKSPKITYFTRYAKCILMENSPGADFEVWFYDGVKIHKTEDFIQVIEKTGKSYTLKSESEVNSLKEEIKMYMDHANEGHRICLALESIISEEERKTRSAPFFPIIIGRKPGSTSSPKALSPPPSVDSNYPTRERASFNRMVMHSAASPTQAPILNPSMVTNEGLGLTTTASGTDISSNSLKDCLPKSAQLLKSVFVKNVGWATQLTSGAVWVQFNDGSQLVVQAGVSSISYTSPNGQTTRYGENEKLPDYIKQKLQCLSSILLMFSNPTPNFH
UniProt P49761, sequence (whole entry, looked up): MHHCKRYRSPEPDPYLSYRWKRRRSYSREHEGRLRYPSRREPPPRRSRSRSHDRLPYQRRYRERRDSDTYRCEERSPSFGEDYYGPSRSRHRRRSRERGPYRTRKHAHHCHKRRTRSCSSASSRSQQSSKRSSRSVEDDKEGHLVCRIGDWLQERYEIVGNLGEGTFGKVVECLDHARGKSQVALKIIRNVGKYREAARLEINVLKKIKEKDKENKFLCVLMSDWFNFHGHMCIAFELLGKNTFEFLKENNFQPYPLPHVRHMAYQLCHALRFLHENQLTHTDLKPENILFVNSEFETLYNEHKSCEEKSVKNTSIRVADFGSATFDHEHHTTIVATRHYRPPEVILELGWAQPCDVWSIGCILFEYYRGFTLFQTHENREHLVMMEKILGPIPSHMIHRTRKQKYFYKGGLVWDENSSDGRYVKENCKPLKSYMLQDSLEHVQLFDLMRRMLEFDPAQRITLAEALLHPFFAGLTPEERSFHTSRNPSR
UniProt P50613, sequence (whole entry, looked up): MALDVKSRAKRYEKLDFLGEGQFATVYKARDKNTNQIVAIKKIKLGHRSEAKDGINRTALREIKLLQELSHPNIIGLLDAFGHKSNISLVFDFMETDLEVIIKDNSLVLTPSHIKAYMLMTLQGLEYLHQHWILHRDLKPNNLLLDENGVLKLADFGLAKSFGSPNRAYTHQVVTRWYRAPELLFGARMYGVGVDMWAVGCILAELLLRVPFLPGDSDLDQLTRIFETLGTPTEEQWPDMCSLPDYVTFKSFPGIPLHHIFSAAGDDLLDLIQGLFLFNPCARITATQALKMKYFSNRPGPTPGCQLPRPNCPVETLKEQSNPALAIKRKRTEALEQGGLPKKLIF
UniProt Q16832, sequence (whole entry, looked up): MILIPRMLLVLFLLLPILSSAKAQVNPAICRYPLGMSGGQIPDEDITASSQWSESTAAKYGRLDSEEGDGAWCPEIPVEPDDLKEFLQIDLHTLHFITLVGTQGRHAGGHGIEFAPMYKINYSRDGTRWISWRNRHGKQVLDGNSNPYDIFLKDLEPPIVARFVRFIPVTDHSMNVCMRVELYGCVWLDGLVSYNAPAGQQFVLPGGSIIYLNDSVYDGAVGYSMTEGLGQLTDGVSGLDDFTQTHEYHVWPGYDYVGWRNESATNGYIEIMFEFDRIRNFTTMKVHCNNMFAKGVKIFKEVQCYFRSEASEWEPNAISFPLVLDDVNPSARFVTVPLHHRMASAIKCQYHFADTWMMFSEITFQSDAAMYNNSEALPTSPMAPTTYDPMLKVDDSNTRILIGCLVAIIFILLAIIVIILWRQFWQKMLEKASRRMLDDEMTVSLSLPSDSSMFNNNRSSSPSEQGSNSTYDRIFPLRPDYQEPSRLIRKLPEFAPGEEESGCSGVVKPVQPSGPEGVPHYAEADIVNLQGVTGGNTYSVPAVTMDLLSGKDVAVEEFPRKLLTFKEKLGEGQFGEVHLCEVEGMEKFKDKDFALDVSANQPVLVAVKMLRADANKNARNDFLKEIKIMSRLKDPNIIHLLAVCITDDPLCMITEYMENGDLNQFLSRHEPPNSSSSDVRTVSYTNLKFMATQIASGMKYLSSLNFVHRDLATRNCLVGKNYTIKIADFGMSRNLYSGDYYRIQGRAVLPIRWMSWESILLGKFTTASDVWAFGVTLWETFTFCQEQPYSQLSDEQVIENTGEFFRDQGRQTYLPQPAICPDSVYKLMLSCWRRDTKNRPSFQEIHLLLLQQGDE
UniProt Q16539, sequence (whole entry, looked up): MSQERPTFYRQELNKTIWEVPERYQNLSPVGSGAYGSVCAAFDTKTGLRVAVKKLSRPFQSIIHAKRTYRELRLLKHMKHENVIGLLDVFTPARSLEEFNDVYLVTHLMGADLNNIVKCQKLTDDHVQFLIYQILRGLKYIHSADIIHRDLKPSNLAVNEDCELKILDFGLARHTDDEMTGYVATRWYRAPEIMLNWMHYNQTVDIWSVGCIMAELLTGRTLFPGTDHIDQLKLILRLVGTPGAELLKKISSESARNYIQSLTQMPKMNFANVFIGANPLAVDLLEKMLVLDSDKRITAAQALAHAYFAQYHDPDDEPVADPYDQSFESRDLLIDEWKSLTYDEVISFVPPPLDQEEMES
UniProt Q96L34, sequence (whole entry, looked up): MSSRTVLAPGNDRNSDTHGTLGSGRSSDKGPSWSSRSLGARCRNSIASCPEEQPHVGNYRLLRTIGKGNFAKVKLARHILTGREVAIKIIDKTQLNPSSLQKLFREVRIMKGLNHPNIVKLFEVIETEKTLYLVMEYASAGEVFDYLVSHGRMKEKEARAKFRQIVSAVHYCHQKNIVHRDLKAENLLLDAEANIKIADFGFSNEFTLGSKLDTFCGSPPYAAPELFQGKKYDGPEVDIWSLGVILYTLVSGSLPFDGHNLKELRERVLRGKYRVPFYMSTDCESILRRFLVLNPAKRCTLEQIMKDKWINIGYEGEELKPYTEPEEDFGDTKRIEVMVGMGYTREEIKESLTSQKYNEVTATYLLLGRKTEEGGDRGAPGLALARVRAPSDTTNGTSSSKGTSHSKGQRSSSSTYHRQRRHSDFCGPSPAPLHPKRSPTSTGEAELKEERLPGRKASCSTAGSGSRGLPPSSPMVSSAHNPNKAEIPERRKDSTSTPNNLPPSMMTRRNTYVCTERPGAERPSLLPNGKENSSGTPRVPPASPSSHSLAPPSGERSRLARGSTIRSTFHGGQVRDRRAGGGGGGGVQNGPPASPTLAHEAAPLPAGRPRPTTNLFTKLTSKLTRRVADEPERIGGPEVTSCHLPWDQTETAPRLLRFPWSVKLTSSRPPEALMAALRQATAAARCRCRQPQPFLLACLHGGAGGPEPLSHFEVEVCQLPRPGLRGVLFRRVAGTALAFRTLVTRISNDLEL
UniProt O15111, sequence (whole entry, looked up): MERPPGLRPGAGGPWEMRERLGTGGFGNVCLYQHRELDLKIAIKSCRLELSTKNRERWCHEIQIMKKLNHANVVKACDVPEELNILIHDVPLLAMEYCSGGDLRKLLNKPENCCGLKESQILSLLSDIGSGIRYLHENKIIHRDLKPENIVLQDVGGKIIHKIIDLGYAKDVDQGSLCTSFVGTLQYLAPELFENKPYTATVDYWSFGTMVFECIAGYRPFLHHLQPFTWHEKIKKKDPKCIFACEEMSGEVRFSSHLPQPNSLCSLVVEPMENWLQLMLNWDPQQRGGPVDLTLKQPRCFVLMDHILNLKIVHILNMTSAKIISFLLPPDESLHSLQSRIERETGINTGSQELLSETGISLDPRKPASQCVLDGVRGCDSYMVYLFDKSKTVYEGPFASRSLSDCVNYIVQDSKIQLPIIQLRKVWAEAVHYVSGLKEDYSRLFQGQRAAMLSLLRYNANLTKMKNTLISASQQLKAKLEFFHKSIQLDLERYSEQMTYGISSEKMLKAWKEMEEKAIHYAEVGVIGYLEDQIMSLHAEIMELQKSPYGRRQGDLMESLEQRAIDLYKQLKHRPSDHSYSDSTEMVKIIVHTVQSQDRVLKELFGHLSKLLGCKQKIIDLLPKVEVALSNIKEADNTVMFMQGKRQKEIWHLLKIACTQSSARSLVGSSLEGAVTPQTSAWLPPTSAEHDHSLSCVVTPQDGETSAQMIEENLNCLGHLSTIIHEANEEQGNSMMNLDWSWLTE
UniProt P51956, sequence (whole entry, looked up): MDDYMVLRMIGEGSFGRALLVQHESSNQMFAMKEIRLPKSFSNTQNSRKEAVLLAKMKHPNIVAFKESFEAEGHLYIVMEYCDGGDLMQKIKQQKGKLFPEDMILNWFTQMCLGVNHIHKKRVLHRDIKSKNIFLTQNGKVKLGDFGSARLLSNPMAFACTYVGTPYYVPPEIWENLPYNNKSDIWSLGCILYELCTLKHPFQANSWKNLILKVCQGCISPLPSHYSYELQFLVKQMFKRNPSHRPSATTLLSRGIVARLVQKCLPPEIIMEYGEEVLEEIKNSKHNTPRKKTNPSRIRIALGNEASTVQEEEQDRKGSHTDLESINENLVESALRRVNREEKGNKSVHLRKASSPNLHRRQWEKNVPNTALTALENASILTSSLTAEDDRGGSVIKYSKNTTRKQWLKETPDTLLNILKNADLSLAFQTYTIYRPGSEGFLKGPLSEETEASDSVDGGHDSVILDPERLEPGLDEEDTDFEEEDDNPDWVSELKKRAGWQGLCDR

Study 1 — read-out: cell-free assay; technique: competition with immobilised ligand; concentration: 1 µM
Compound: CCCCN(CCCC)C(=O)CN1C[C@@H](c2cc(OC)c3c(c2)OCO3)[C@H](C(=O)O)[C@H]1CC(C)(C)CCC
For CHUK (Homo sapiens, UniProt O15111): remaining binding read 100%.
It gave 84.1% for remaining binding (PLK4 (Homo sapiens, UniProt O00444)).
It gave 89.5% for remaining binding (CDK7 (Homo sapiens, UniProt P50613)).
For EGFR (Homo sapiens, UniProt P00533, del746-750): remaining binding read 70.3%.
Non-receptor tyrosine-protein kinase TYK2, JH1 (TYK2, Homo sapiens, UniProt P29597) — remaining binding: 100%.

Study 2 — technique: RNA Bind-n-Seq; molecule type: RNA; matrix: in vitro; concentration: 20 nM; notes: 6-mer, flanks averaged, single round; added: 150 mM KCl; relative to: input library; reading: higher = stronger binding
Target: TAR DNA-binding protein 43, full length, His tag (TARDBP, Homo sapiens, UniProt Q13148, residues 1-414)
`GGCAAA`: “6-mer enrichment (R)” 1.24.
`AAUCGC` — result for “6-mer enrichment (R)”: 0.611.
`ACGCAA` — result for “6-mer enrichment (R)”: 0.685.
`GAUUGU` — result for “6-mer enrichment (R)”: 0.762.
`CGCGAU` — result for “6-mer enrichment (R)”: 0.749.
`UGCCCU`: “6-mer enrichment (R)” 0.658.
`CUUGUG`: “6-mer enrichment (R)” 0.865.
`UAAUCU`: “6-mer enrichment (R)” 0.569.

Study 3 — read-out: enzyme activity; action: inhibitor; concentration: 0.5 µM; relative to: control
SMILES: COc1cc2c(cc1OC)-c1[nH]nc(Nc3cccc(F)c3)c1C2
For MAPK14 (Homo sapiens, UniProt Q16539): remaining activity read 94.3%.
NEK3 (Homo sapiens, UniProt P51956) — remaining activity: 97.1%.
It gave 99.2% for remaining activity (CDC42BPB (Homo sapiens, UniProt Q9Y5S2)).
MAP2K1 (Homo sapiens, UniProt Q02750) — remaining activity: 90.1%.
DDR2 (Homo sapiens, UniProt Q16832) — remaining activity: 110%.
The remaining activity was 77.2% (MARK2 (Homo sapiens, UniProt Q7KZI7)).
GRK4 (Homo sapiens, UniProt P32298) — remaining activity: 97.1%.
The remaining activity was 96.5% (CLK3 (Homo sapiens, UniProt P49761)).
It gave 91.9% for remaining activity (Cyclin-dependent kinase 9, with cyclin K (CDK9, Homo sapiens, UniProt P50750)).
PAK3 (Homo sapiens, UniProt O75914) — remaining activity: 93.1%.
Myosin-IIIb (MYO3B, Homo sapiens, UniProt Q8WXR4) — remaining activity: 107%.
The remaining activity was 70.6% (MARK4 (Homo sapiens, UniProt Q96L34)).
It gave 97.8% for remaining activity (MET (Homo sapiens, UniProt P08581)).

Study 4 — technique: protein-binding microarray; molecule type: double-stranded DNA, one strand shown; matrix: in vitro; concentration: not given; reading: higher = stronger binding
Target: Protein C-ets-1 (ETS1, Homo sapiens, UniProt P14921, residues 1-441, full length assumed)
Notes: k-mer, scored over probes, only values ≥0.25
Construct (chain): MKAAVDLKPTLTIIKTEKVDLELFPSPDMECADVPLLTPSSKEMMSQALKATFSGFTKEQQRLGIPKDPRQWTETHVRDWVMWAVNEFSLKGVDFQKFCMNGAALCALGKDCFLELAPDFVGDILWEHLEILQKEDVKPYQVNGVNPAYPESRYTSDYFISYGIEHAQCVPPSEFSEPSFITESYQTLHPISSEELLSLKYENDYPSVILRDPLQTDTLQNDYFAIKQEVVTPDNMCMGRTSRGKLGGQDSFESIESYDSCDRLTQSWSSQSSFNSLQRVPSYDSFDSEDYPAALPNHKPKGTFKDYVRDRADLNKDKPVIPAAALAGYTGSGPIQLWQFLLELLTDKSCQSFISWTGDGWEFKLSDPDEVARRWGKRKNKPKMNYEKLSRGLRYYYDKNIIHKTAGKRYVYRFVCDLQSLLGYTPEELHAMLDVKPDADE
The E-score of `GAGGATAC` is reported as 0.252.
With `CGGAGGTC` the E-score was 0.283.
The E-score of `CATATCCC` is reported as 0.307.
`ATAGCGGA` gave an E-score of 0.314.
`CTCGGAAA` gave an E-score of 0.302.
With `GTAGGAAA` the E-score was 0.366.
`CGCGGAAG` gave an E-score of 0.427.
The E-score of `AGGAGGAT` is reported as 0.279.

Excerpt of the above (study 4):
The E-score of `GAGGATAC` is reported as 0.252.
With `CGGAGGTC` the E-score was 0.283.
